# Published values pooled from the literature.
# Each line is one published result; not all experiments were run side by side. ± gives the spread as reported.
SMILES,target or system,test,system,conditions,scale,quantity,value
Cc1nn(-c2nc3c(F)cc(F)cc3s2)c(O)c1C(c1ccc(C(F)(F)F)cc1)c1c(C)nn(-c2nc3c(F)cc(F)cc3s2)c1O,THP1-Dual,"IFNB1 luciferase reporter, inhibitor",,together with: HT-DNA,,EC50,11.6 ± 0.6 µM
COc1cnc2cccc(N3CCc4c(cc(Cn5ccnc5C)cc4-c4cn(C)nc4C(F)(F)F)C3=O)c2c1,MCAS,cell growth,,120 h,,EC50,17.9 µM
C[C@]12CCCN1CC1=NNC(=O)c3cc(F)cc4[nH]c2c1c34,NCI-N87,,,together with: temozolomide,,EC50,> 10 µM
CC(C)(C)C(=O)ONc1nc2nonc2nc1Nc1ccccc1F,L6 rat myoblasts,"oxygen consumption rate, Seahorse XF analyzer",,,,EC50,6.2 µM
C=CC[C@@H]1/C=C(\C)C[C@H](C)C[C@H](OC)[C@H]2O[C@@](O)(C(=O)C(=O)N3CCCC[C@H]3C(=O)O[C@H](/C(C)=C/[C@@H]3CC[C@@H](O)[C@H](OC)C3)[C@H](C)[C@@H](O)CC1=O)[C@H](C)C[C@@H]2OC,Jurkat wild type,NFAT luciferase reporter,,,,EC50,1.38e-05 µM
COc1cc(-c2ccccc2)ncc1C(=O)Nc1ccc2c(=O)[nH]c(-c3ccc(C(C)(C)O)cc3)nc2c1,Apc Q1405X mutant organoids,"organoid area, live-cell imaging",mouse small intestinal organoids,"144 h, Tnks1 genotype Tnks1+/+",,EC50,1.8 µM
CCCCC(=O)OCC(=O)[C@]1(O)Cc2c(O)c3c(c(O)c2[C@@H](O[C@H]2C[C@H](NC(=O)C(F)(F)F)[C@H](O)[C@H](C)O2)C1)C(=O)c1c(OC)cccc1C3=O,NLRP3 inflammasome (mouse),,mouse BMDM,10 µM,,inhibition,22.1%
CCn1cc(-c2cc(Cn3ccnc3)cc3c2CCN([C@H](c2cc(OC)ccn2)C2CC2)C3=O)c(C(F)(F)F)n1,TOV21G,"cell growth, inhibitor",,120 h,,EC50,9.17 µM
c1ccc(Oc2ccc(Nc3ccc4ncc(OCC5CCNCC5)nc4c3)cc2)cc1,NB-4,"cell proliferation, XTT",,7 days,,EC50,1.4 ± 0.21 µM
Cn1cnc([N+](=O)[O-])c1Sc1nc(N)nc2[nH]cnc12,HEK-293T ATF4-FLuc reporter,"reporter gene, activator",,,,EC50,> 9.96 µM
CC(C)Nc1ccnc(Nc2cccc(-c3cnccn3)c2)n1,MOLM-13 (FLT3-ITD),"cell viability, MTT",,72 h,,EC50,0.045 µM
c1cc(N2CCCC2)ccc1-c1cc2ncc(OCC3CCNCC3)nc2cc1-c1ccc(N2CCCC2)cc1,NB-4,"cell proliferation, XTT",,7 days,,EC50,5.2 ± 0.62 µM
CC(C)(O)c1ccn2c(-c3ccc(F)c(-c4ccc(F)cc4C#N)c3)cnc2c1F,HEK-293T ATF4-FLuc reporter,"reporter gene, activator",,,,EC50,4.08 µM
CCn1cc(-c2cc(Cn3ccoc3=N)cc3c2CCN([C@@H](C)c2cc(OC)ccn2)C3=O)c(C(F)(F)F)n1,HCC15,"cell growth, inhibitor",,120 h,,EC50,> 30 µM
CN1CC(Oc2cnc(C#N)cc2-c2ccn3nc(NC(=O)C4CC4)cc3c2)C1,"dendritic cells, mouse, bone marrow-derived","cytokine release increase, measured: IL-10",,together with: LPS,,EC50,1.03 µM
c1cncc(-c2cccc(Nc3ccnc(NC4CCCCC4)c3)c2)c1,BJ,cell proliferation,,72 h,,EC50,8.74 µM
C[N+](C)(C)CC(O)CC(=O)[O-] (stereo not drawn),,"binding, equilibrium dialysis LC-MS",,"5 µM, thermostabilized A2AR-BRIL construct","relative to: no-protein control, direction not given",z-scored log2 fold change,0.0559
CC(C)Nc1ccnc(Nc2cccc(-c3cccnc3)c2)n1,MOLM-13 (FLT3-ITD/D835Y),"cell viability, MTT",,72 h,,EC50,0.082 µM
Fc1ccc(Oc2ccc(Nc3ccc4ncc(OCC5CCNCC5)nc4c3)cc2)cc1,NB-4,"cell proliferation, XTT",,7 days,,EC50,2.7 ± 0.16 µM
CN(C)CC(=O)O,,"binding, equilibrium dialysis LC-MS",,"5 µM, thermostabilized A2AR-BRIL construct","relative to: no-protein control, direction not given",z-scored log2 fold change,0.191
c1cncc(-c2cccc(Nc3nccc(NC4CCCCC4)n3)c2)c1,MOLM-13 (FLT3-ITD),"cell viability, MTT",,72 h,,EC50,0.62 µM
